# Experimental data from different studies.
# Values joined by “and” are separate records of one study, mostly repeats; a detail may differ. ± marks the error that the study gave.
SMILES,cell line,test,conditions,how to read,endpoint,value
O=C(/C=C/C=C/C=C/C1CCCCC1)NC1=C[C@@](O)(/C=C/C=C/C=C/C(=O)NC2=C(O)CCC2=O)[C@@H]2O[C@@H]2C1=O,AU565,"cell growth, CellTiter-Glo",78 h,,GI50,14.1 µM
C[C@]1(c2nc3c(C(N)=O)cccc3[nH]2)CCCN1,HD-MB03,,168 h,,IC50,inactive
COc1cnc2cccc(N3CCc4c(cc(Cn5ccnc5C)cc4-c4cn(C)nc4C(F)(F)F)C3=O)c2c1,AU565,"cell growth, inhibitor",120 h,,EC50,1.97 µM
Cc1nc(NC(=O)N2CCC[C@H]2C(N)=O)sc1-c1ccnc(C(C)(C)C(F)(F)F)c1,NCI-H596,"cell growth, CellTiter-Glo",120 h,,Hill coefficient GR curve,0.765
CC(C)(c1ccc(O)cc1)c1ccc(O)cc1,HepG2 spheroids,Hoechst flow cytometry,"0.01 µM, 96 h",,G2 phase cells,7.64 ± 1.54%
CC1(C)CCC(CN2CCN(c3ccc(C(=O)NS(=O)(=O)c4ccc(NCC5CCOCC5)c([N+](=O)[O-])c4)c(Oc4cnc5[nH]ccc5c4)c3)CC2)=C(c2ccc(Cl)cc2)C1,THP-1,"annexin V/PI flow cytometry, measured: annexin V-/PI-","0.2 µM, 24 h",,viable cells,94.6%
CCOC(=O)CSc1nc(-c2ccc(Cl)cc2)c2c(NC(=O)c3ccccc3)nnc-2[nH]1,A549/ATCC,NCI60 SRB,10 µM,,growth percent,106%
Cn1nnc2c(C(N)=O)ncn2c1=O,HD-MB03,,168 h,,IC50,inactive
O=C(O)COCC(=O)O,"hepatocytes, iPSC-derived, W2 line","cell viability, RealTime-Glo MT","24 h, differentiation day 23",,IC50,8870 µM
Nc1cc(C(F)(F)F)c(-c2nc(N3CCOCC3)nc(N3CCOCC3)n2)cn1,HD-MB03,cell growth,"168 h, single agent",,IC50,0.967 µM
O=C(O)CN(c1ccc(N(CC(=O)O)S(=O)(=O)c2cc3c(cc2Cl)OCCO3)c2ccccc12)S(=O)(=O)c1cc2c(cc1Cl)OCCO2,HepG2-C8 ARE-luciferase reporter cells,"ARE reporter activation, luciferase reporter","10 µM, 24 h, 0.1% DMSO",relative to: vehicle control,fold induction,> 2
COc1cc2ncnc(Nc3ccc(Oc4ccccc4)c(C)c3C)c2cc1OC.Cl,SK-MEL-2 (NRAS Q61R),resazurin,"concentration not given, 72 h, with: trametinib",direction not given,Bliss synergy score,-174%
Nc1cccc2c1C(=O)N(C1CCC(=O)NC1=O)C2=O (stereo not shown),RPMI-8226,"flow cytometry, measured: CD83",concentration not given,relative to: comparator compound alone,surface marker level,157%
CC/C(=N\NC(=O)C(C)Nc1ccccc1)c1ccc(O)c(C)c1O (stereo not shown),SK-OV-3,"Western blot, measured: TAZ","10 µM, 6 h, 3D gellan gum culture, unit not given",relative to: β-actin,protein level,1.8 ± 0.31
COc1ccc(Oc2ccc(CN(C)Cc3cnc4nc(N)nc(N)c4n3)cc2)cc1,786-O,"high-content imaging, measured: MitoTracker Red uptake",10 µM,,mitochondrial toxicity,0.89 ± 17.6%
Cc1ccc(CNC(=O)Cn2cc(CSc3nc4ccccc4[nH]3)nn2)cc1,MDA-MB-231,MTT,500 ppm,,cytotoxicity,93.7%
C=Cc1c2[n-]c(c1C)/C=c1\[n-]/c(c(C)c1C=C)=C\c1[n-]c(c(CCC(=O)O)c1C)/C=c1\[n-]c(c(C)c1CCC(=O)O)=C2.[Sn+4],SH-SY5Y,"RNA-seq, measured: CCN1 mRNA","5 µM, 5 h",relative to: untreated cells,fold change,2.4
CCN(CCCOc1ccc2c(Nc3cc(CC(=O)Nc4cccc(F)c4)n[nH]3)ncnc2c1)CCOP(=O)(O)O,HD-MB03,cell growth,"168 h, DMSO",,IC50,0.297 µM
CCn1cc(-c2cc(Cn3ccnc3)cc3c2CCN([C@H](c2cc(OC)ccn2)C2CC2)C3=O)c(C(F)(F)F)n1,SCC-9,"cell growth, inhibitor",120 h,,EC50,> 30 µM
O=c1[nH]nc(OCCCc2ccc(Cl)cc2)c(NCc2cccnc2)c1Br,HEK-293T,"RNA-seq GSEA, measured: Hallmark androgen response",concentration not given,direction not given,normalized enrichment score,0.961
Cc1ccc(-c2cc3ccccc3c(N)n2)cc1,SEM,"annexin V-FITC/PI flow cytometry, measured: annexin V+ PI-","5.0 µM, 72 h",,early apoptotic cells,4.1%
COc1ccc2c(c1)c(C1=C(c3c[nH]c4ccccc34)C(=O)NC1=O)cn2CCCN(C)C,H9c2,agonist,"concentration not given, 20 min, A2B receptor-mediated, with: pertussis toxin overnight",,ERK1/2 activation,inhibited
Cc1cc(Nc2ncc(Cl)c(Nc3ccccc3S(=O)(=O)C(C)C)n2)c(OC(C)C)cc1C1CCNCC1,CLB-GE,"phosphoproteomics LC-MS/MS, measured: KIF26B phosphorylation","200 nM, 60 min",relative to: untreated,log2 fold change,-2.21
Cn1cc(-c2ccc(-c3cncc(Cl)c3N3CCC4(CCNC4=O)CC3)cc2)cn1,COLO 205,"gene expression, microarray, measured: CCL15 mRNA","concentration not given, 6 h",relative to: untreated cells,log2 fold change,2.72
COc1ccc(OC)c(-c2nc3ccc(-c4nc5ccc(N6CCN(C)CC6)cc5[nH]4)cc3[nH]2)c1,SN12C,SRB,"10 µM, 48 h",,growth percent,106%
COc1cc(Nc2ncc3c(n2)-c2ccc(Cl)cc2C(c2c(F)cccc2OC)=NC3)ccc1C(=O)O,HD-MB03,cell growth,"168 h, DMSO",,IC50,0.0407 µM
Cn1c(Nc2nc3ccc(C(F)(F)F)cc3s2)nc2cc(C(=O)NCCOCCO)ccc21,SH-SY5Y,"RNA-seq, measured: VCL mRNA","5 µM, 5 h",relative to: untreated cells,fold change,1.58
Cc1cccc(-c2[nH]c(CNc3ccccc3F)nc2-c2ccc3ncnn3c2)n1,MM1.S pomalidomide-resistant,XTT,4 µM,relative to: untreated,viability,16%
Cc1cnc(NC2CCOCC2)nc1-n1cnc(C(=O)NC(CN)c2cc(F)cc(Cl)c2)c1 (stereo not shown),A-375,flow cytometry,"1 µM, 48 h",,sub-G0 cells,0%
Nc1cc(C(F)(F)F)c(-c2cc(N3CCOCC3)nc(N3CCOCC3)n2)cn1,HD-MB03,cell growth,"168 h, DMSO",,IC50,0.863 µM
O=C(c1ccc2[nH]ccc2c1)N1CCN(S(=O)(=O)c2ccc3[nH]c(=O)oc3c2)CC1,HL-60,"NUDT15 inhibitor, mass spectrometry","10 µM, 16 h, with: 6-thioguanine 0.5 µM",higher = more incorporation,6-thio-GTP in RNA,298 a.u.
CC/C(=N\NC(=O)NCc1cccc(O)c1)c1ccc(O)c(C)c1O,SK-OV-3,Western blot,"10 µM, 1 h, 2D culture, unit not given",relative to: DMSO,LATS band intensity,0.26 ± 0.25
CC1=CC[C@H]2[C@@H]([C@@H]1CC[C@H]1[C@]3(C)CC[C@H](O)C(C)(C)O[C@H]3CC[C@]1(C)O)C(C)(C)CC[C@]2(C)O,KB-C2 (P-gp overexpressing),drug efflux,"10 µM, 30 min",,intracellular [3H]-paclitaxel remaining,81.6%
Cc1ccc2oc(=O)cc(NCCO)c2c1,"COS-7, untransfected",,"500 µM, relative to vehicle, unit not given",relative to: 3 µM ionomycin response,Ca2+ mobilisation,3.15 ± 1.93
Cn1cc(Nc2nccc(-c3ccc4c(c3)CN(C3COC3)CC[C@H]4NC(=O)c3cn(C(C)(C)C)nn3)n2)cn1,mouse splenic B cells,measured: iNOS signalling,"30 mg/kg, IgD-activated in vivo","relative to: vehicle, direction not given",pathway activation z-score,1
CCCCc1oc2ccc(NS(C)(=O)=O)cc2c1C(=O)c1ccc(OCCCN(CCCC)CCCC)cc1,human embryonic stem cell aggregates,"mRNA level, microarray, measured: SNAI1","0.5 µM, 120 h","relative to: untreated, down-regulated",fold change,2.3 fold
O=C(C[C@@H](C(F)F)n1ccc(F)n1)N1CCC(O)(Cn2cnc3c(cnn3-c3ccc(F)cc3)c2=O)CC1,CHP-212 parental (wild-type USP7),annexin V-PI flow cytometry,"1 µM, 48 h",,viable cells (annexin V-/PI-),63.6% and 57.9% and 64.2%
Cc1cccc(-c2nn3c(c2-c2ccnc4ccc(C(N)=O)cc24)CCC3)n1,HD-MB03,,168 h,,IC50,inactive
C[C@]12CC[C@@H]3c4ccc(OS(=O)(=O)O)cc4CC[C@H]3[C@@H]1CCC2=O,primary rat hippocampal/cortical neuron-glia cultures,,"1 µM, with: 1 µM α-synuclein oligomers",,reversal of trafficking deficit,13.3%
CCn1cc(-c2cc(Cn3ccoc3=N)cc3c2CCN([C@@H](C)c2cc(OC)ccn2)C3=O)c(C(F)(F)F)n1,NCI-H596,"cell growth, inhibitor",120 h,,EC50,0.0162 µM
CC[C@@]1(O)C(=O)OCc2c1cc1n(c2=O)Cc2cc3c(CN(C)C)c(O)ccc3nc2-1,HD-MB03,cell growth,"168 h, single agent",,IC50,0.309 µM
COc1cc(/C=C/C(=O)N2CCC=CC2=O)cc(OC)c1OC,MDA-MB-468,"quantitative RT-PCR, measured: PTGIS","30 µM, 8 h",relative to: untreated cells,mRNA level,55.2 ± 6.8%
CCCN1CCCC[C@H]1C(=O)Nc1c(C)cccc1C,primary rat hippocampal/cortical neuron-glia cultures,,"1 µM, with: 1 µM α-synuclein oligomers",,reversal of trafficking deficit,20.3%
COc1cc(N2CCC(N3CCN(C)CC3)CC2)ccc1Nc1ncc(Cl)c(Nc2ccccc2P(C)(C)=O)n1,NCI-H3122 (EML4-ALK variant 1),cell viability,,,Emax,75.1%
c1ccc2[nH]ccc2c1,HCT-8,"RNA-seq, measured: PDK4",concentration not given,,"mRNA level, LS mean",5.5 counts per million
CC(=O)c1nn(-c2ccc(Cl)cc2)/c(=N/N=C(\C)c2ccc(NC(=O)c3ccc(C)cc3)cc2)s1,MCF7,,0.312 µM,,toxicity,40.2%

# Some of these lines once more:
SMILES,cell line,test,conditions,how to read,endpoint,value
COc1ccc2c(c1)c(C1=C(c3c[nH]c4ccccc34)C(=O)NC1=O)cn2CCCN(C)C,H9c2,agonist,"concentration not given, 20 min, A2B receptor-mediated, with: pertussis toxin overnight",,ERK1/2 activation,inhibited
Cc1cc(Nc2ncc(Cl)c(Nc3ccccc3S(=O)(=O)C(C)C)n2)c(OC(C)C)cc1C1CCNCC1,CLB-GE,"phosphoproteomics LC-MS/MS, measured: KIF26B phosphorylation","200 nM, 60 min",relative to: untreated,log2 fold change,-2.21
Cn1cc(-c2ccc(-c3cncc(Cl)c3N3CCC4(CCNC4=O)CC3)cc2)cn1,COLO 205,"gene expression, microarray, measured: CCL15 mRNA","concentration not given, 6 h",relative to: untreated cells,log2 fold change,2.72
COc1ccc(OC)c(-c2nc3ccc(-c4nc5ccc(N6CCN(C)CC6)cc5[nH]4)cc3[nH]2)c1,SN12C,SRB,"10 µM, 48 h",,growth percent,106%
COc1cc(Nc2ncc3c(n2)-c2ccc(Cl)cc2C(c2c(F)cccc2OC)=NC3)ccc1C(=O)O,HD-MB03,cell growth,"168 h, DMSO",,IC50,0.0407 µM
Cn1c(Nc2nc3ccc(C(F)(F)F)cc3s2)nc2cc(C(=O)NCCOCCO)ccc21,SH-SY5Y,"RNA-seq, measured: VCL mRNA","5 µM, 5 h",relative to: untreated cells,fold change,1.58
